Results collected from several papers.
A part holds a random share of what one study measured. Positions count from the first letter of the parent shown.

Sample 1
Target: Interferon regulatory factor 7, full length, phosphomimetic (IRF7, Homo sapiens, UniProt Q92985, residues 1-503, S471D/S472D/S475D/S476D/S477D/S483D/S484D/S487D)
UniProt Q92985, sequence (whole entry, unmodified, looked up): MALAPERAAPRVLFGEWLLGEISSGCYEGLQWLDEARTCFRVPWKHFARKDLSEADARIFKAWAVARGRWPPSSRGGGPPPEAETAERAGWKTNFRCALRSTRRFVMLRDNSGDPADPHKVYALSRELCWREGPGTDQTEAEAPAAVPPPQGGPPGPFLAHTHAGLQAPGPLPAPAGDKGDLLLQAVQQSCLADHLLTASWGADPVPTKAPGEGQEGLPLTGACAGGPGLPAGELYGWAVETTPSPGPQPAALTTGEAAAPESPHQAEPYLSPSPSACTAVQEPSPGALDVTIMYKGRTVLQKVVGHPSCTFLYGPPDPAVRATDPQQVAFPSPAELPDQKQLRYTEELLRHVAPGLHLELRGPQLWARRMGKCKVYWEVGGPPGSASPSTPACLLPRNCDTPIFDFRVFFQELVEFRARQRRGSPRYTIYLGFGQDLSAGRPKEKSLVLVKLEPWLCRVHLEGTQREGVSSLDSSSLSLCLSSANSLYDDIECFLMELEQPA
Technique: protein-binding microarray
Molecule type: double-stranded DNA, one strand shown
Sample: in vitro
Concentration: 2200 nM top
Notes: 60-bp whole probe
Added: salmon DNA 0.4 mg/ml
Baseline: random background probes
Reading: higher = stronger binding
Shared flanks, not repeated: GCCTAGCAC … GTCTTGATTCGCTTGACGCTGCTG
Sequence	fitted relative affinity [z-score]
TTAAGTATCGGACTGGGTTAGTGCTAG	0.00798
TTATATTTCAGTTTCGATTAGTGCTAG	8.48
TTAGATATCGGTACTGGATTAGTGCTA	0.265
TTAGGACTGGGTATCGGTTAGTGCTAG	-0.356
TTAGCACTGGACTATCGGTTAGTGCTA	-0.256
TTAGATTTCAGGATCGATTAGTGCTAG	0.319
TTAGGACTGGGTTTCAGTTAGTGCTAG	0.359
CAGGAATTGAAAATTAGTGTTGTGCTA	-0.47

Sample 2
Target: RNA binding protein fox-1 homolog 2, RRM domain, GST-SBP tag (RBFOX2, Homo sapiens, UniProt O43251-10, residues 100-194)
Technique: RNA Bind-n-Seq
Molecule type: RNA
Sample: in vitro
Concentration: 365 nM
Notes: natural RNA segment, single round, ends assumed
Baseline: no-protein control
Reading: higher = stronger binding
Shared flanks, not repeated: GGGAGUUCUACAGUCCGACGAUC … UGGAAUUCUCGGGUGCCAA
Target sequence (chain): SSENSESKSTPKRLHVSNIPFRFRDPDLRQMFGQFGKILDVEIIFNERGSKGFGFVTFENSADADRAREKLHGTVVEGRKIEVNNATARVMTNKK
Sequence	RBNS enrichment (R)
GAGCUGAGAGUGGGCCUGGGAAAGGCUGUAGGGAAGGAGUGAAGCUGUCACUGAAAUGAACUUGAUCUUGAUCUGCUUUGAUAUGGGGACAGAAUCCCCGACUGCACUAU	2.07
AGCUUCCGUGGGACAGAAGCUUUGGGUAGCUCUGAGUGACAGCUGCUUGUAUUCUCGGACCUGGACUCUGACAUGCAGAGAAGAGCUGACCGUCCUGGUGAGGACCACUG	0.878
CGAGAUGGAUCAGGGAGUUCUAGCUGCACACACCCCGAGCGCCUGAGCCCUCAGAAUGCCCACCAUGCACACAGAGACUCCAUUCUCCCCAGGACCAAGUCCUCUGCUGU	0.356
GCCACCGAUCCUAUCCAGCUAGCUCUUCACCAGGCCUUGUAACCAACUCCUUGUCGUCCUAAUCUGCAAACCCAGACCCAGACCCUUUCCGCAGCCGCCUCCUCUUCCUC	0.517
UAUCCCAGGCCUGUGCGUGGUGGAAAAAGCCAGCCUUGGCCCUGCAGCCUCCACCUCGCCGCUGGGGGACCAACAGGUUGCUUACAGCUUUGCACCCCGGCAUCAGCACA	7.89
CACACUGCACUCUUUGAUCCUCCCUGGUGUCUGGUGCCUUCUAUCUUAAAAAACAUGACAAGUCAUAACAGUUUUAAAGGGAAGACUUGUAAACUGGAAAAUCAUGUAUU	0.583
CAUCAUCGACCGAGGAGCACAAAGAAGUUCUGUUUCUGUUUUUUUCAGAAACUUUAUUUUAGCUGUCAAGCAGAGAAUAGCUUGAACUAUUCAGACUAUUGUUGGCACUG	0.258

Sample 3
Target: CCNE1, cyclin fold, Cln2 fusion (human)
Technique: yeast growth competition, sequencing
Sample: yeast
Notes: weak parent motif
Baseline: not given
Reading: higher = stronger binding
Starting sequence: RB1 docking peptide (human); PKPLKKLRFDIEG
Substitution	normalised enrichment score
PKPLKKLRFDIEH [G13H]	0.374
PKPLKKLRFFIEG [D10F]	0.917
PKPLKKLRFHIEG [D10H]	0.758
PKWLKKLRFDIEG [P3W]	1.87
PKPLKKLRFDIAG [E12A]	0.0932
PKPLKKLRFDIIG [E12I]	2.01

Single results of other studies
Substance	target	assay	test system	setting	scale	endpoint	result
PhoQ, residues 284 288 289 292 302 303 ASHLAV	PhoP, residues 12 14 15 18 19 AQALL (Escherichia coli, UniProt P23836)	Sort-seq, item: YFP reporter	E. coli	PhoQ-PhoP variant library, added: 10 µM Mg2+	baseline: high Mg2+ state, higher = stronger signaling	fold induction	2.04

Repeated from above (sample 1):
Sequence	fitted relative affinity [z-score]
TTAGGACTGGGTATCGGTTAGTGCTAG	-0.356
TTAGATTTCAGGATCGATTAGTGCTAG	0.319
CAGGAATTGAAAATTAGTGTTGTGCTA	-0.47
